Published values gathered from unrelated publications.
Parts stem from different laboratories: compare values within a part only.

Study 1
Target: Sal-like protein 4, full length isoform A (SALL4, Homo sapiens, UniProt Q9UJQ4, residues 1-1053)
UniProt Q9UJQ4, sequence (whole entry, looked up): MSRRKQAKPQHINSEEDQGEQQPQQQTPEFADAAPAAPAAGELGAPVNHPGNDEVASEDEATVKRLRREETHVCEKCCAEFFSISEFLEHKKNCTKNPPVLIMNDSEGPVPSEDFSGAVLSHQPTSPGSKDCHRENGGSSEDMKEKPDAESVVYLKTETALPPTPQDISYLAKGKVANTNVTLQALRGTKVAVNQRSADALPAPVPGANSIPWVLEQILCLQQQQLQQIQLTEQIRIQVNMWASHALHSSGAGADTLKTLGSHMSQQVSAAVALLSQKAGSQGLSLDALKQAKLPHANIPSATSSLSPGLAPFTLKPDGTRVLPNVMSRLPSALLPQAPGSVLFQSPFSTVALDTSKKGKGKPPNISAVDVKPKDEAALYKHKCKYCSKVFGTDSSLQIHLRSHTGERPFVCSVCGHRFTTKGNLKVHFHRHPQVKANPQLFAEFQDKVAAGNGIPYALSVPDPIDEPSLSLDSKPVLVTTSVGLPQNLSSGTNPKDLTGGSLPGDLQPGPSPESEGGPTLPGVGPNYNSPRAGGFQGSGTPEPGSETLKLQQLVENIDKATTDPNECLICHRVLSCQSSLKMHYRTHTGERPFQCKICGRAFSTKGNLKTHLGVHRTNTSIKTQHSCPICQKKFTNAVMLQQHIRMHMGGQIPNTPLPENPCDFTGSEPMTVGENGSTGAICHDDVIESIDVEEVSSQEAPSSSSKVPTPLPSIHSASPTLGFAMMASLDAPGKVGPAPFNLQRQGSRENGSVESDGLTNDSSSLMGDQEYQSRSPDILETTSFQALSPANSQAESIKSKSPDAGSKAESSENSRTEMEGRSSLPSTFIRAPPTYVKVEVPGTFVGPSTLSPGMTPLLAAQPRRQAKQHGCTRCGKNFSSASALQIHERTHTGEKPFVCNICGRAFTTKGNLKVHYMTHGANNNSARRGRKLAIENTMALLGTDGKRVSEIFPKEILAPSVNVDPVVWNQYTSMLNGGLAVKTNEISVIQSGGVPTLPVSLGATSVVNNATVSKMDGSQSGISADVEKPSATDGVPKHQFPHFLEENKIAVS
Technique: universal PBM
Molecule type: double-stranded DNA, one strand shown
Sample: in vitro
Concentration: 600 nM
Notes: 8-mer, flanks averaged, mean of replicates
Reading: higher = stronger binding
Measurement: E-score
CACCACAC: -0.071
ATAAGTGG: 0.25
ATAATTCC: 0.352
AGGATCGA: -0.0154
CAGCAACC: -0.154
AGTCATAT: 0.347
AAACACGA: 0.143
CACGAGCG: -0.192
AACAGAAA: 0.281
TGATACAA: 0.202
TAGTAGGA: -0.141
TACAGGCA: 0.0287
GACTATTA: 0.267
AAGTTCAA: 0.225
AGCAGTAG: -0.14
TCGTTAGA: 0.149
ACCGAATA: 0.189
CACTTAGG: -0.00647

Study 2
Target: PABPC1L2, full length, GST fusion (mouse, UniProt A0ABA7IW68)
Technique: RNAcompete
Molecule type: RNA
Sample: in vitro
Concentration: 20 nM
Notes: 7-mer, probes averaged, single round
Baseline: mean of 7-mers
Reading: higher = stronger binding
Measurement: 7-mer Z-score
Target sequence (chain): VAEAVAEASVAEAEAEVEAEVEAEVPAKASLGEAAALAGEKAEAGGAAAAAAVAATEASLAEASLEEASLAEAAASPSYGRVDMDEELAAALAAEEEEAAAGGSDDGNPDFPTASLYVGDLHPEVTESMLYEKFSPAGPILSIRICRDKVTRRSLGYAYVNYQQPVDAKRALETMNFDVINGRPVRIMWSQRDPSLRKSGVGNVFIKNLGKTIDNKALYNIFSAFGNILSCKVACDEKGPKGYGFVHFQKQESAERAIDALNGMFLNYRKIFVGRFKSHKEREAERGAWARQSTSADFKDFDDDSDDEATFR
UGUGAGG: -0.166
GAUAGGA: 0.0352
UGAGGCG: -0.0138
AUCCCCG: -0.441
AGCGGGC: 0.0515
ACGACCC: -0.215
CAGCGCU: -0.249
GCGACGA: 0.385
GCUAUGU: -0.155
AGGUGAU: 0.0315
GAAUGAU: -0.13
GGUUGUC: -0.293
UUCGGCG: -0.331
UCUCGGG: -0.0917
UAAUAUA: 0.0696
AAGCGUU: -0.0971
UUAAAGC: 0.222
AGCACCA: -0.0192
AAACAGU: 3
CAAGGAU: -0.0047
CCUCGUU: -0.474
UGGAAUU: -0.155
UUUGCCU: -0.44

Study 3
Target: RNA binding protein fox-1 homolog 2, RRM domain, GST-SBP tag (RBFOX2, Homo sapiens, UniProt O43251-10, residues 100-194)
Technique: RNA Bind-n-Seq
Molecule type: RNA
Sample: in vitro
Concentration: 365 nM
Notes: natural RNA segment, single round, ends assumed
Baseline: no-protein control
Reading: higher = stronger binding
Measurement: RBNS enrichment (R)
Shared flanks, not repeated: GGGAGUUCUACAGUCCGACGAUC … UGGAAUUCUCGGGUGCCAA
Construct (chain): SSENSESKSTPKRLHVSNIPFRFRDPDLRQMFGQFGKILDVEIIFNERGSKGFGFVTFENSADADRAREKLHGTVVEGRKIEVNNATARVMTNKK
UAAAUCUAGGAUGUGAUGAUGACUUUGUAAUUUGAUUUUCUGAAAUCAGACCCUGAGAGGGGAAAAUCUUAAAGUAAAUUACAUUAAAUUAUCUGUGCAUUUCACACCAG: 0.254
CUGAUAGUGCAGAGACUUACCAGAAGACACAAGGAAUUGUACUGAAGAGCUAUUACAAUCCAAAUAUUGCCGUUUCAUAAAUGUAAUAAGUAAUACUAAUUCACAGAGUA: 0.626
ACAGGGAUUAGGGAAAUGGAGCUCUGGCUUUGAAGUUAUUUGUGAGUUUAGCAACCUUCCAGUUACCUGCAGAGUUCUGGGUGCACAGCCACCCCUCAUAAGAGCCCUGU: 0.896
CGGGGGAACACACACAAAUGGAAAAAAAUUGUAAGCACUUUUUUUGUAAAACCAAUGUCUGUUUUGUUACAUACCUUUCAUGUUGUGCUUUGUAAAUGUCUUAUUUGUGU: 0.774
CGGGGAGGGUUGGCAGUGGUGGGGCCCAUCCUCUAUCCUGUAGCUCCUGCCGCUGCGAGGCUGAACUCUUUGGUCCUGCCUCCCGUUCUCAAUACACUCUGUCUCAAAUC: 0.546
CCUAUACAAAUUUCUUAAAUUGUUAGGAUCAAAGUUGAUUAUCACAGUAGUUAAAAAAUAAUUUCAUGGCGGGGCGCCAUGGCUCAUGCCUGUAAUCCUAGCACUUUGGG: 0.568
UCUGACUGUAGUAAAAGCUGCUUCCUGUCCUGUUCAAGUUGCUGCAGCAGGGGUCAUGCCAAGUCAGGCCUGUAGCUCCUAAUAGGGGCCUAUUUCUACUUUUAUUUUGU: 0.404
GGGGUGGUCAACCUGUGUCCCCUCUGAGCCGUUAUGCCAAAGGUCACUAAGGACAUUUAGAAUCCCCAUCCAUCCAUCCAUCCAUCCAUCCAUCCAUCCAUUCAUCCAUC: 0.948
GGAGAGGUAGAAGUUCCAGCCCAGGCAGAUGUGCACAAACAGAGCCCCCGCGUACAGGUCCAGCUGCGGAGGGAGAGAGCCUUGUGUGGGACUGUUAUUCCCAGGGCUCC: 0.658
UUUACAGUGACCUCCAGGCAACUGAAGUCAAGAAUCAGGACUCGGGCUUGCUGCAGGAGGCCCACGUCUGGCCUUUUUCUGUGGGACACUUCUGACCUUGACACUCCGGC: 0.305
GUUGAUAUAUACCUUCUGUAAAUAACUUUUUUUGAGAAGGAAAUAAAAUCAGCUGGAACUGAACCCUAAAUCUUGACUUUUGUCGUUAUUAUGCCCAAUGCCUAAGAUUG: 0.35
UGAGGCCAUUCUCUCUUUGGUUCCUUUCUAAUCUAUCCACACAUGCCUUUCCCUUCUUUGAUCCCCUCCCUUCCAUUGUUCAUUCAUGAAGAGUUUUGUUAGAGACAAGC: 0.452

Study 4
Target: TAR DNA-binding protein 43, full length, His tag (TARDBP, Homo sapiens, UniProt Q13148, residues 1-414)
Technique: RNA Bind-n-Seq
Molecule type: RNA
Sample: in vitro
Concentration: 20 nM
Notes: 6-mer, flanks averaged, single round
Together with: 150 mM KCl
Baseline: input library
Reading: higher = stronger binding
Measurement: 6-mer enrichment (R)
GGGACU: 1.87
GUCUGG: 1.52
GCUGCU: 0.818
UGCGAA: 0.876
GCGGCC: 1.49
UACCUA: 0.58
AACCCC: 0.635
UCAGCC: 0.63
ACGCGA: 0.832
CAUAUA: 0.594
CUGAUU: 0.572
CACAAA: 0.674
AUUUAA: 0.604
CUGAGG: 1.59
CAUGUA: 0.7
GCGCGA: 1.55
ACUAGC: 0.668
UAAGAC: 0.639
UUUGAA: 0.72
UGCUUC: 0.591
GAGGCC: 1.48
UAAUGC: 0.651
CCCUAC: 0.623
UAGCGA: 0.815
CUGCAC: 0.675

Study 5
Target: Histone acetyltransferase KAT6A, winged helix 1, GST fusion (KAT6A, Homo sapiens, UniProt Q92794, residues 1-85)
Technique: protein binding microarray
Molecule type: double-stranded DNA, one strand shown
Sample: in vitro
Concentration: not given
Notes: 8-mer, flanks averaged, mean of 2 arrays, mostly near background
Baseline: not given
Reading: higher = stronger binding
Measurement: E-score
Residues (chain): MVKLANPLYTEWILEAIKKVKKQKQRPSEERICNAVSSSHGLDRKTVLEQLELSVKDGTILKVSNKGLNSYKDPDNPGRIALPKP
ACGCCACA: 0.053
CGAATCTA: -0.0624
ATAATAAG: -0.132
ACTCAAAC: -0.119
ATCGGGTC: 0.231
AAGCTATG: -0.0738
GCGCATGA: 0.242
AAGGAGGC: -0.033
ACCAAACC: 0.00568
CTAATACC: 0.0602
CTGATGAC: 0.00958
AAAGCCAT: -0.0266
GGGCAAAA: 0.0401
CTTCAGTA: 0.0832
CCCACGCC: 0.0567
CACTGTAG: -0.0887
ATATAAAC: -0.0298
CCCTTCTC: -0.0709
GCGACCCA: 0.0482
CAGACGAG: -0.153
ACCCCTGG: -0.149
GGGAGAGA: -0.135
AAAGAGGG: -0.0603
GCACCAGC: -0.0104

Study 6
Target: Interferon regulatory factor 5, full length, phosphomimetic (IRF5, Homo sapiens, UniProt Q13568-2, residues 1-514, K96S/S451D/S453D/S456D/S462D)
Technique: protein-binding microarray
Molecule type: double-stranded DNA, one strand shown
Sample: in vitro
Concentration: 250 nM
Notes: 60-bp whole probe
Together with: salmon DNA 0.4 mg/ml
Baseline: random background probes
Reading: higher = stronger binding
Measurement: log fluorescence
Shared flanks, not repeated: GCCTAGCAC … GTCTTGATTCGCTTGACGCTGCTG
GACGGTCTGGACTTTCGGGACGTGCTA: 3.54 z-score
GACGAACTGGGGTTTCCAGACGTGCTA: -0.287 z-score
TCACCTATAGGTTCAACACTGTGCTAG: 0.00899 z-score
GAGTGCTGGGATTACAGGCAGTGCTAG: -0.878 z-score
GACGGTTTACTTCTCCTGACGTGCTAG: 0.0776 z-score
GAGGGTTTCGGGTTTCGGGACGTGCTA: 6.9 z-score
CTTTACATGAGTTTAGAGCCGTGCTAG: 0.0127 z-score
GACGGTCTCAGTCTCGGGACGTGCTAG: -0.126 z-score
TCCAATTGTCCTTTCACTTTGTGCTAG: 2.74 z-score
TCATTTTTTCTTTTATTACTGTGCTAG: 1.91 z-score
TTAGATCTCAGAATCGATTAGTGCTAG: 0.637 z-score
TTAGAACTGGGTTTCGGTTAGTGCTAG: 8.49 z-score
TTAGGTAGCGGGACTGGGTTAGTGCTA: -0.397 z-score
GACGGTTTCAGGACTGGGGACGTGCTA: 0.885 z-score
TTAGGACTGGTGACTGGGTTAGTGCTA: -0.12 z-score
TTAGAACTGAGGTTTCGATTAGTGCTA: 5.94 z-score
TTAGGTATCGACACAGGGTTAGTGCTA: 2.64 z-score
GACGGACTGGGACTGAGGACGTGCTAG: -0.767 z-score

Repeated from above (study 4):
AACCCC: 0.635
UGCGAA: 0.876
GCGCGA: 1.55
CACAAA: 0.674
UACCUA: 0.58
ACGCGA: 0.832
